Assay results from different studies.
Lines come from different studies, so protocols differ. Numbers after ± are the reported error.
UniProt P02730, sequence (whole entry, looked up): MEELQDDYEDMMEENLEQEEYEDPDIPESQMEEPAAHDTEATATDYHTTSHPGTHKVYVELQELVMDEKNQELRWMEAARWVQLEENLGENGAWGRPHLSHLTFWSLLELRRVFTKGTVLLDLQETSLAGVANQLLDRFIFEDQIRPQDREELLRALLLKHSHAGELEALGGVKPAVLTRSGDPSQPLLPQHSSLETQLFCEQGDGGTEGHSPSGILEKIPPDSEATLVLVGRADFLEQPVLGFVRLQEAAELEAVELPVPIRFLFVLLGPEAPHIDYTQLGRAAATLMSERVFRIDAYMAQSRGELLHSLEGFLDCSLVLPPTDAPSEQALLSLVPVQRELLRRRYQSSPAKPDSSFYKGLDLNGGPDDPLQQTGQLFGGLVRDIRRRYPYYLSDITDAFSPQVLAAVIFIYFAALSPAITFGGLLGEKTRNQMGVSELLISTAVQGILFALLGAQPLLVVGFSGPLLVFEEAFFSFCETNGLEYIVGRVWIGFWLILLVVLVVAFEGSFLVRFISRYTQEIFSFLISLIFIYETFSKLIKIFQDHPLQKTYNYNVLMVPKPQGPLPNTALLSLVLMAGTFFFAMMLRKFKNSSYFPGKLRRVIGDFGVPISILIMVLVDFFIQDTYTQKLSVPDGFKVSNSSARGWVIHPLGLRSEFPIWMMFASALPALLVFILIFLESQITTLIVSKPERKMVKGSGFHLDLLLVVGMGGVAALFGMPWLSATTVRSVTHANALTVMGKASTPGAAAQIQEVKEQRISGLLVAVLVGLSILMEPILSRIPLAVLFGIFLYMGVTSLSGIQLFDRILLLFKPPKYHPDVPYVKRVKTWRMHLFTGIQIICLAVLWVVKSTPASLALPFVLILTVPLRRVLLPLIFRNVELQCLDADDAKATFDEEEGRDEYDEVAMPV
UniProt P20272, sequence (whole entry, looked up): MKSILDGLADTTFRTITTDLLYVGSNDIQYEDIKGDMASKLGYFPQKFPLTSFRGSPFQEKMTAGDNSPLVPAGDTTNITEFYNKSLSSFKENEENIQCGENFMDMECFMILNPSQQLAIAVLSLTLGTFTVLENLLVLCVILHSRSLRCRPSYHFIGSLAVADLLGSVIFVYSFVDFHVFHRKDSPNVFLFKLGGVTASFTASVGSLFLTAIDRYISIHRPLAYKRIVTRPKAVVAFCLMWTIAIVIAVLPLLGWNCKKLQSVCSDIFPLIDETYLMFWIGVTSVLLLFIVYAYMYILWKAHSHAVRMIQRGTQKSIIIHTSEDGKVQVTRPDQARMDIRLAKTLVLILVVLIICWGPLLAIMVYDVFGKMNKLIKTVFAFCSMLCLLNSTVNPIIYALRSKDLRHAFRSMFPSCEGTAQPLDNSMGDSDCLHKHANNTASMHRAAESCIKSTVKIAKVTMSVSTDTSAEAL

SMILES = CN1C(=O)CC(=O)N(c2ccccc2)c2cc(Cl)ccc21; test system = mouse wild-type and Scn1a+/−, plasma; setting = intraperitoneal, 10 mg/kg, single dose; quantity = Cmax; result = 2400 ng/mL
SMILES = N=C(N)NCCC[C@@H]1NC(=O)[C@H](CCCCNC(=O)[C@H](CC(=O)O)NC(=O)[C@H](CC(=O)O)NC(=O)[C@H](CC(=O)O)NC(=O)CC[C@H](NC(=O)CCOCCOCCOCCOCCNC(=O)c2ccc(NN)nc2)C(=O)N[C@@H](CC(=O)O)C(=O)N[C@@H](CC(=O)O)C(=O)N[C@@H](CC(=O)O)C(=O)NCCCC[C@@H]2NC(=O)[C@@H](Cc3ccccc3)NC(=O)[C@H](CC(=O)O)NC(=O)CNC(=O)[C@H](CCCNC(=N)N)NC2=O)NC(=O)[C@@H](Cc2ccccc2)NC(=O)[C@H](CC(=O)O)NC(=O)CNC1=O [technetium-99m labelled]; test system = athymic nude mice, female, U-87 MG glioma xenograft, tumour and muscle; setting = intravenous, dose not given, 60 min, with: excess RGD2 14 mg/kg co-injected; scale = reference: tumour over muscle; quantity = tumour-to-muscle ratio; result = 1.8 ± 0.11
SMILES = C[C@@H]1CC[C@@](N)(c2ccccc2Cl)C(=O)[C@@H]1O; test system = female CD-1 mice, plasma; setting = intraperitoneal, 5 mg/kg; quantity = dose-normalized Cmax; result = 427 ± 31.8 ng/mL per mg/kg
SMILES = C=C1C[C@@H]2[C@H](CC[C@]3(C)C(=O)CC[C@@H]23)[C@@]2(C)C=CC(=O)C=C12; assay = LC-MS/MS; test system = postmenopausal breast cancer women, plasma; setting = oral, 25 mg/day, 2 h, AST and ALT up to 40; quantity = median plasma concentration; result = 7.5 ng/mL
SMILES = NC1(c2ccccc2Cl)CCCCC1=O (racemic); test system = male Wistar rats, plasma; setting = intraperitoneal, 40 mg/kg once daily for 14 days, day 14; quantity = AUC(0-inf); result = 3880 ± 866 ng·h/mL
SMILES = CC(=O)NC[C@H]1CN(c2ccc(N3CCSCC3)c(F)c2)C(=O)O1; test system = THP-1 caseum surrogate; setting = 5 µM, 4 h, 37 °C; quantity = fraction unbound; result = 0.217 ± 0.017
SMILES = N=C(N)c1ccc(-c2ccc(-c3ccco3)o2)cc1F; tested on = Salmonella enterica; assay = sodium azide mutagenicity; test system = TA1535; setting = 20 µM, 48 h, with: sodium azide 2 µg/plate after pre-exposure; quantity = inhibition; result = 90%
SMILES = N[C@@]1(c2ccccc2Cl)CC[C@H](O)CC1=O; test system = female CD-1 mice, plasma; setting = intraperitoneal, 5 mg/kg; quantity = dose-normalized Cmax; result = 209 ± 13.4 ng/mL per mg/kg
SMILES = O=C1CCCO1; assay = item: ataxia, vomiting, tremor; test system = baboon (Papio anubis); setting = two highest doses; quantity = time window of effects; result = 0.5 to 5 h
SMILES = CNC(C)Cc1ccc2c(c1)OCO2 (racemic); test system = human; setting = oral, 0.75 mg/kg, mean over session, unit not given; scale = reference: pre-dose baseline; quantity = change in heart rate; result = 8.7
SMILES = CCCC(C(=O)c1ccc2c(c1)OCO2)N1CCCC1 (stereo not drawn); test system = human plasma; setting = 750 µg/L, 24 h, High QC, room temperature; scale = reference: freshly fortified plasma; quantity = stability; result = 5.2 % difference
SMILES = CNC(C)C(=O)c1ccc(C)cc1 (stereo not drawn); test system = C57BL/6J mice, male and female; setting = intraperitoneal, 2 h, single dose; quantity = LD50; result = 119 mg/kg
SMILES = Cc1ncc2n1-c1ccc(Cl)cc1C(c1ccccc1F)=NC2; test system = healthy human, plasma; setting = oral, 2 mg, with: efavirenz 50 mg, no ritlecitinib; quantity = AUC(0-t); result = 19.8 ng·h/mL
SMILES = CC(C)=C1C/C=C(\C)CC/C=C(\C)CC1=O; assay = cell viability, MTT; test system = mouse lung slices; setting = 48 h; quantity = CC50; result = 135 µM
SMILES = CN(C)CCc1c[nH]c2ccccc12; test system = healthy human; setting = intravenous infusion, 21.5 mg, from plasma clearance; quantity = blood clearance; result = 18200 mL/min
SMILES = Cc1ncc2n1-c1ccc(Cl)cc1C(c1ccccc1F)=NC2; test system = healthy human volunteers, plasma; setting = oral, 7.5 mg single dose, arithmetic mean, alone; quantity = AUC(0-t); result = 101 ng·h/mL
SMILES = C[C@H]1CNCCc2ccc(Cl)cc21; test system = Sprague-Dawley rat, male, plasma; setting = subcutaneous, 0.5 mg/kg, 30 min; quantity = plasma concentration; result = 14 ± 0.5 ng/mL
SMILES = N#Cc1ccc(-c2ccc(-c3ccco3)o2)c(F)c1; tested on = Salmonella enterica; test system = TA1535; setting = 10 µM, 48 h, with: sodium azide after pre-exposure; scale = reference: sodium azide alone; quantity = mutant frequency; result = 37%
SMILES = CCCCCCCCCCC(=O)O[C@H]1CC[C@H]2[C@@H]3CCC4=CC(=O)CC[C@]4(C)[C@H]3CC[C@]12C; test system = human blood; setting = 300 ng/mL, 30 min, 4 °C, NaF 5 mg/mL, K2 oxalate 4 mg/mL; quantity = testosterone concentration; result = 388 ng/dL
SMILES = N[C@@]1(c2ccccc2Cl)CCC[C@@H](O)C1=O; test system = male CD-1 mice, plasma; setting = intraperitoneal, 5 mg/kg; quantity = dose-normalized Cmax; result = 310 ± 26.1 ng/mL per mg/kg
SMILES = CN[C@@H](C)Cc1ccccc1; test system = C57BL/6J mice, male and female; setting = intraperitoneal, 2 h, single dose; quantity = LD50; result = 84.5 mg/kg
SMILES = CCOC(=O)c1cncn1[C@H](C)c1ccccc1; assay = serum corticosterone, inhibitor; test system = Sprague-Dawley rat; setting = intravenous, 15 min, 50% reduction, with: ACTH1-24; quantity = ID50; result = 0.46 ± 0.05 mg/kg
SMILES = CC(=O)NNC(=O)c1ccncc1; test system = THP-1 caseum surrogate; setting = 5 µM, 4 h, 37 °C; quantity = fraction unbound; result = > 99.9%
SMILES = NCC1(CC(=O)O)CCCCC1; assay = in situ brain perfusion; test system = CF-1 mouse, wild type, male; setting = 1 µM, pH 7.4; quantity = brain uptake clearance Kin; result = 15 mL/100 g/min
SMILES = CCCCCc1cc(O)c2c(c1)OC(C)(C)[C@@H]1CCC(C)=C[C@@H]21; tested on = Cannabinoid receptor 1 (Cnr1, Rattus norvegicus, UniProt P20272); assay = G protein activation, agonist; test system = Sprague-Dawley rat, female, cerebellar membranes; scale = reference: basal binding; quantity = Emax; result = 43.5%
SMILES = Cc1ncc2n1-c1ccc(Cl)cc1C(c1ccccc1F)=NC2; test system = human, plasma; setting = oral, 2 mg, geometric mean, with: fenebrutinib 200 mg twice daily; quantity = AUC(0-t); result = 38.3 ng·h/mL
SMILES = CNC(C)Cc1ccc2c(c1)OCO2 (stereo not drawn); test system = C57BL/6J mouse both sexes; setting = intraperitoneal, 2 h, as salt; quantity = LD50; result = 119 mg/kg
SMILES = COc1cccc2c1C(=O)c1c(O)c3c(c(O)c1C2=O)C[C@@](O)(C(=O)CO)C[C@@H]3O[C@H]1C[C@H](NC(=O)[C@@H]2CCCN2C(=O)CNC(=O)[C@H](CC(C)C)NC(=O)[C@H](C)NC(=O)CP(=O)(O)O)[C@H](O)[C@H](C)O1; test system = mouse, E0771 tumour-bearing, kidney; setting = intravenous, 92 µmol/kg; quantity = Cmax; result = 530 µM
SMILES = Cc1ncc(OC[C@@]2(c3cccc(F)c3)C[C@H]2C(=O)Nc2ccc(F)cn2)c(C)n1; test system = healthy human; setting = 10 mg, with: itraconazole; quantity = adverse events leading to discontinuation; result = 0%
SMILES = O=[N+]([O-])c1cn2c(n1)OC[C@@H](OCc1ccc(OC(F)(F)F)cc1)C2; test system = THP-1 caseum surrogate; setting = 5 µM, 4 h, 37 °C; quantity = fraction unbound; result = 0.036 ± 0.002
SMILES = CN[C@@](C)(C[18F])C(=O)O; tested on = SK-OV-3 tumour model; test system = host not given, lung; setting = 1 h, tumour-bearing; quantity = tracer uptake; result = 1.3 %ID/g
SMILES = CSCC[C@@H]1NC(=O)[C@H](CC(=O)O)NC(=O)CNC(=O)[C@H](CCCNC(=N)N)NC(=O)[C@H](C)NC(=O)[C@H](CCC(=O)O)NC(=O)[C@H](CCCNC(=N)N)NC(=O)[C@@H]2CSSC[C@@H]3NC(=O)[C@H](CO)NC(=O)[C@H]([C@@H](C)O)NC(=O)[C@@H]4CCCN4C(=O)[C@H](C)NC(=O)[C@H](Cc4c[nH]c5ccccc45)NC(=O)[C@H](CC(=O)O)NC(=O)CNC(=O)[C@H](CCCNC(=N)N)NC(=O)CNC(=O)[C@H](CCC(N)=O)NC(=O)[C@@H]4CCCN4C(=O)[C@@H](NC(=O)CNC(=O)C(C)F)CSSC[C@H](NC(=O)CNC(=O)[C@H](C)NC(=O)[C@H](CC(C)C)NC(=O)[C@H](CSSC[C@@H](C(=O)NCC(N)=O)NC(=O)[C@H]([C@@H](C)O)NC(=O)[C@H](CCCNC(=N)N)NC(=O)[C@@H]4CCCN4C1=O)NC(=O)[C@H](CC(=O)O)NC(=O)[C@H](CO)NC(=O)[C@H](CC(=O)O)NC(=O)[C@H](CCC(N)=O)NC(=O)[C@H](CO)NC3=O)C(=O)N[C@@H](C(C)C)C(=O)N2 (stereo partly drawn) [fluorine-18 labelled]; test system = nude mice U-87 MG xenograft, lungs; setting = intravenous, 1 h; quantity = tissue uptake; result = 0.94 ± 0.08 %ID/g
SMILES = CCCCN1C(=O)C(C=CC=CC=C2C(=O)N(c3ccc(S(=O)(=O)O)cc3)N=C2C)C(=O)N(CCCC)C1=O; tested on = SLC4A1 (Homo sapiens, UniProt P02730); assay = chloride exchange, 36Cl flux, item: inward-facing unloaded transporter; setting = 0 °C, minimum estimate, equilibrium binding; quantity = Ki; result = ≥ 0.046 µM
SMILES = CC(=O)NC[C@H]1CN(c2ccc(N3CCOCC3)c(F)c2)C(=O)O1; test system = THP-1 caseum surrogate; setting = 5 µM, 4 h, 37 °C; quantity = fraction unbound; result = 0.279 ± 0.022
SMILES = N=C(N)NCCC[C@@H]1NC(=O)[C@H](CCCCNC(=O)CNC(=O)CNC(=O)CNC(=O)CC[C@H](NC(=O)CCOCCOCCOCCOCCNC(=O)c2ccc(NN)nc2)C(=O)NCC(=O)NCC(=O)NCC(=O)NCCCC[C@@H]2NC(=O)[C@@H](Cc3ccccc3)NC(=O)[C@H](CC(=O)O)NC(=O)CNC(=O)[C@H](CCCNC(=N)N)NC2=O)NC(=O)[C@@H](Cc2ccccc2)NC(=O)[C@H](CC(=O)O)NC(=O)CNC1=O [technetium-99m labelled]; assay = γ-counting; test system = female athymic nude mice, U-87 MG xenograft, kidneys; setting = intravenous, 2 h; quantity = tissue uptake; result = 6.64 ± 0.41 %ID/g
SMILES = COc1ccc2c(c1)[C@]13CCCC[C@@H]1[C@H](C2)N(C)CC3; test system = Wistar rat, both sexes, plasma; setting = oral, 5 mg/kg, 2 h after pretreatment, with: single quinidine 2.5 mg/kg; quantity = MRT(0-inf); result = 3.44 ± 1.19 h
SMILES = CN(C)C[C@H]1CCCC[C@]1(O)c1cccc(O)c1; assay = visual analog scale; test system = healthy non-drug abusers; setting = oral, 20 mg, unit not given; scale = reference: placebo; quantity = take drug again; result = -6
SMILES = N[C@]1(c2ccccc2Cl)C[C@H](O)CCC1=O; test system = male CD-1 mice, plasma; setting = intraperitoneal, 5 mg/kg; quantity = dose-normalized Cmax; result = 112 ± 11.3 ng/mL per mg/kg
SMILES = CCCC(C(=O)c1ccc(O)c(OC)c1)N1CCCC1 (stereo not drawn); test system = human plasma; setting = 750 µg/L, 24 h, High QC, room temperature; scale = reference: freshly fortified plasma; quantity = stability; result = 4.8 % difference
SMILES = Cc1ncc2n1-c1ccc(Cl)cc1C(c1ccccc1F)=NC2; test system = human CYP3A5*1/*1, serum; setting = geometric mean, with: ketoconazole 400 mg; quantity = terminal half-life; result = 8.83 h
SMILES = CC(C)CC(CN)CC(=O)O (stereo not drawn); assay = neuromuscular coordination; test system = Wistar rat male; setting = oral, 10 mg/kg, 3 h; quantity = performance time; result = 125 s
SMILES = CC(C)c1ccc2c(c1)CC[C@H]1[C@](C)(CN)CCC[C@]21C; tested on = SBcl2; assay = cell growth or viability, MTS; setting = 72 h; quantity = IC50; result = 3.72 µM
SMILES = Cc1ncc2n1-c1ccc(Cl)cc1C(c1ccccc1F)=NC2; test system = healthy male, plasma; setting = oral, 7.5 mg, alone, geometric mean, day 1; quantity = AUC(0-t); result = 111 ng·h/mL
SMILES = [123I]c1cncc(OC[C@@H]2CCN2)c1; assay = SPECT; test system = human, frontal lobe; setting = intravenous bolus, 2.1 mCi; scale = reference: tissue over plasma; quantity = tissue/plasma ratio; result = 12.1
SMILES = CN1CC[C@@]23CCCC[C@@H]2[C@@H]1Cc1ccc(O)cc13; test system = Wistar rat, both sexes, plasma; setting = oral, 5 mg/kg DEM, DEM 2 h after pretreatment, with: TCE 400 mg/kg single pretreatment; quantity = Cmax; result = 26.5 ± 14.7 ng/mL

For quick reference, copied from above:
SMILES = CCCC(C(=O)c1ccc2c(c1)OCO2)N1CCCC1 (stereo not drawn); test system = human plasma; setting = 750 µg/L, 24 h, High QC, room temperature; scale = reference: freshly fortified plasma; quantity = stability; result = 5.2 % difference
SMILES = CNC(C)C(=O)c1ccc(C)cc1 (stereo not drawn); test system = C57BL/6J mice, male and female; setting = intraperitoneal, 2 h, single dose; quantity = LD50; result = 119 mg/kg
SMILES = Cc1ncc2n1-c1ccc(Cl)cc1C(c1ccccc1F)=NC2; test system = healthy human, plasma; setting = oral, 2 mg, with: efavirenz 50 mg, no ritlecitinib; quantity = AUC(0-t); result = 19.8 ng·h/mL
